Measurements pooled from the literature.
Each numbered part is a random draw from the data of one study; scales do not carry over between parts. Changes are numbered by the printed parent chain.

Block 1
Target: RNA binding protein fox-1 homolog 2, RRM domain, GST-SBP tag (RBFOX2, Homo sapiens, UniProt O43251-10, residues 100-194)
Technique: RNA Bind-n-Seq
Form: RNA
Sample: in vitro
Tested at: 365 nM
Setting: natural RNA segment, single round, ends assumed
Baseline: no-protein control
Direction: higher = stronger binding
Shared flanks, not repeated: GGGAGUUCUACAGUCCGACGAUC … UGGAAUUCUCGGGUGCCAA
Residues (chain): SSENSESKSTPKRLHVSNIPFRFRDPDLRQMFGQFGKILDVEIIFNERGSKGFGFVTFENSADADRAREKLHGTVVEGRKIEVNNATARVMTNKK
`UCCGGAUCACUGUGGUUGGGUGGAGGUCUGUCUGCACUGGGAGCCUCAGGAGGGCUCUGCUCCACCCACUUGGCUAUGGGAGAGCCAGCAGGGGUUCUGGAGAAAGAAAC`: “RBNS enrichment (R)” 0.798.
For `AUGUUGACAUUUUGUGGUUAUUUUCAGAUUAAUAGUAAUUGUUAUGCUCUUAAAAGCACUCAUAGAAAGUGUAAGCAUGUGUAAGCAUGUCCUGAAUAGCUUACUAUUCU`, “RBNS enrichment (R)” read 0.991.
Under “RBNS enrichment (R)”, `GUAAGUUACCUAGCUCUACCUGACUGUGGAUAAAAGACAGUGCUCUACCCACCUGGUGGACCCAGGGACUGAAGCAAUGGCACAGAGACCAUGACAGACUGUGCUCCUAU` is recorded as 0.316.
`UUUUCUCCCCCUUUUCUUUGUUGUUUUCGUUGUUGUUGAUAACAAACUGGAAACCUGUCUCUCUCUGUUUGUGGACAAAUGAGAGGUUUCAGAUGCAGUGAGGAGCACUG`: “RBNS enrichment (R)” 0.365.
`GACUCUGUUGCUGGUCUUCUCAGUUCAUUUCCUGAGGUGGAUUUACUGAGAGAAGGUGAAAUAAAGCCAUAUUUAGUAUACCAGAGAAGGUAGAUUUUAAGAAUGGUCUC` — result for “RBNS enrichment (R)”: 0.416.
`GGACCUGAGGAUUGAGGUCCUUGCUUUCUCCUGGUGGCCAUGGGACCUCAGAGGCAUUUUUGCCAAGAGGGCAGAACCUGACUGAGCCCUGGAUAUCCCCUGUCUUAGUG` — result for “RBNS enrichment (R)”: 0.186.
For `UUCUCAUUUCCCAAUGCCUCUCUGUGGGAGAGCUCCAUGCCAGUUUUCACCACGCUCAGGCAAAUACUCUGCAGCUGUUAUUGGAUGGGCCAUUCCGAUCUGCCUUAUGA`, “RBNS enrichment (R)” read 0.908.
`AUCCCGUCUUAUGGUGAAAUGUAAAAGAGAAGGAGAUUUCCUGUAACUUUGCCCACAUUUGCUUCCGGAAGCAGCGCACAGCUGUCUGUAUGUUUAAAAGAUAGCAUCUA`: “RBNS enrichment (R)” 0.736.
For `UCAAUUUUUUUUUAACAAUACAUUUUUGUGGUCAGUUCCAACAGCACUGUCCGUACUUUUAAAACUGGAAUGACCUCCUUCAGAUAUCGUGCCUCUUAGUGCCAAACCCA`, “RBNS enrichment (R)” read 0.543.
Under “RBNS enrichment (R)”, `UCUACUACAGAGUCUAUUAUACUAGAUAAAAAUGUUGUUACAAAGUCUGGAGUCUAGGGUUGGGCAGAAGAUGACAUUUAAUUUGGAAAUUUCUUUUUACUUUUGUGGAG` is recorded as 0.773.
`GUUGAUUAAUAGCUGAAGCAAAGUAUCCAAAUUUGUGACAAGGGUUUGUGUGUAUCCCCUCCGUGAAAUCCAGCCAAUUAUCAGGGUAGAAGAUGGGUGCAUGAGAAUCU` — result for “RBNS enrichment (R)”: 1.17.
`GAAUGAUGCCGAAUGGAAUGUUUUGUGCAUGACCUUUUAACCUUUGGCUAUUGCCAAUUCCCCACUGCAAAGGGGAAGGCAGAUUUUAUGAAGAGUUUUAGGAAUAAAUA`: “RBNS enrichment (R)” 24.5.

Block 2
Target: ABI1, truncated, D143A, DHFR fusion (Arabidopsis thaliana)
Technique: DHFR PCA, deep sequencing
Sample: yeast
Setting: methotrexate growth selection, single substitutions
With: (+)-ABA 0.032 µM
Baseline: wild-type fitted maximum
Direction: higher = stronger binding
Starting sequence: PYL1, truncated, DHFR fusion (Arabidopsis thaliana); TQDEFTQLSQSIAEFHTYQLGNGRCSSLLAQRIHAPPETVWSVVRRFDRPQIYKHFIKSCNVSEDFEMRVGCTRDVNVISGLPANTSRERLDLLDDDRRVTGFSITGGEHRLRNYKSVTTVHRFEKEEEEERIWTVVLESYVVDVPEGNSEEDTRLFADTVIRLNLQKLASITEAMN; partner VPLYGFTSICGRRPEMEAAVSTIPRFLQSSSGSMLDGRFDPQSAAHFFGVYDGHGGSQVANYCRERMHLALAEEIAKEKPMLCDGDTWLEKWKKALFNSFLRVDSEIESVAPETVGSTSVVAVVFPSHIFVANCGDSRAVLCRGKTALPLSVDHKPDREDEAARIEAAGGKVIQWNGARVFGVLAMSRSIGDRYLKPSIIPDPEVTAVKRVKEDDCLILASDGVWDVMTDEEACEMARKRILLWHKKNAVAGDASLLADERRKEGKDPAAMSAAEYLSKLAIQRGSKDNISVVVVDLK
`A13E` — result for “relative binding score”: 41.5%.
`S63H` — result for “relative binding score”: 12.6%.
Under “relative binding score”, `G23W` is recorded as 0.879%.
`L91Q` — result for “relative binding score”: -5.78%.
`K168E` — result for “relative binding score”: -2.85%.
For `E129P`, “relative binding score” read 50%.
`V137W` — result for “relative binding score”: 3.65%.
For `R45P`, “relative binding score” read 0.905%.
For `T86P`, “relative binding score” read 2.53%.
`S80D` — result for “relative binding score”: 6.01%.
For `S87L`, “relative binding score” read 30.5%.
For `T101C`, “relative binding score” read 22.8%.
`G108S`: “relative binding score” 0.193%.
Under “relative binding score”, `G102F` is recorded as 1.72%.
`L112D` — result for “relative binding score”: -0.602%.
`P146Y` — result for “relative binding score”: -0.465%.
`D96C`: “relative binding score” 0.684%.

Block 3
Target: Prothrombin, mature alpha-thrombin (F2, Homo sapiens, UniProt P00734)
Technique: aptamer microarray, sandwich
Form: DNA with 2'F-ANA
Sample: in vitro
Tested at: 200 nM
Setting: whole 15-mer aptamer, many near background
With: Cy3 exosite-II aptamer, 400 nM
Direction: higher = stronger binding
Oligonucleotide: GGTTGGTGTGGTTGG
Under “mean fluorescence intensity”, `2'F-ANA at 1 2 3 5 6 7 8 9 11` is recorded as 61.2 a.u.
For `2'F-ANA at 1 2 4 5 6 10 11 13 15`, “mean fluorescence intensity” read 49.8 a.u.
Under “mean fluorescence intensity”, `2'F-ANA at 1 2 4 5 8 9 10 13 14 15` is recorded as 47.5 a.u.
`2'F-ANA at 1 2 5 8 9 10 11 12 13 14 15`: “mean fluorescence intensity” 105 a.u.
For `2'F-ANA at 1 2 5 6 9 10 12 13`, “mean fluorescence intensity” read 51 a.u.
`2'F-ANA at 2 3 4 6 7 8 11 13 14 15` — result for “mean fluorescence intensity”: 302 a.u.
`2'F-ANA at 2 4 5 8 9 14 15`: “mean fluorescence intensity” 46.5 a.u.
`2'F-ANA at 3 5 7 8 9 10 11 13 14 15`: “mean fluorescence intensity” 75.4 a.u.
`2'F-ANA at 2 3 6 8 9 11 12 13` — result for “mean fluorescence intensity”: 696 a.u.
`2'F-ANA at 1 2 3 6 7 8 10 14 15`: “mean fluorescence intensity” 108 a.u.
Under “mean fluorescence intensity”, `2'F-ANA at 1 6 9 15` is recorded as 181 a.u.
Under “mean fluorescence intensity”, `2'F-ANA at 2 4 5 6 7 9 10` is recorded as 55 a.u.
For `2'F-ANA at 5 6 9 11 13 14`, “mean fluorescence intensity” read 53.9 a.u.
`2'F-ANA at 1 4 7 13 14 15` — result for “mean fluorescence intensity”: 53.5 a.u.
`2'F-ANA at 1 2 13 15`: “mean fluorescence intensity” 136 a.u.
Under “mean fluorescence intensity”, `2'F-ANA at 1 2 4 7 8 14 15` is recorded as 60.8 a.u.
`2'F-ANA at 1 2 6 7 8 9 10 13 14 15` — result for “mean fluorescence intensity”: 62.9 a.u.
`2'F-ANA at 2 4 6 8 9 11 12`: “mean fluorescence intensity” 378 a.u.
`2'F-ANA at 2 4 8 9 10 11 14` — result for “mean fluorescence intensity”: 102 a.u.
For `2'F-ANA at 4 5 6 7 10 15`, “mean fluorescence intensity” read 46.1 a.u.
Under “mean fluorescence intensity”, `2'F-ANA at 1 3 7 8 9 10 12 14 15` is recorded as 122 a.u.
Under “mean fluorescence intensity”, `2'F-ANA at 2 6 8 9 13 14 15` is recorded as 106 a.u.
`2'F-ANA at 2 6 7 8 10 11 14`: “mean fluorescence intensity” 128 a.u.
Under “mean fluorescence intensity”, `2'F-ANA at 1 4 5 7 9 10 11 12 14 15` is recorded as 52.5 a.u.
For `2'F-ANA at 1 3 4 5 6 7 9 11 14`, “mean fluorescence intensity” read 46.6 a.u.

Block 4
Target: Interferon regulatory factor 5, full length, phosphomimetic (IRF5, Homo sapiens, UniProt Q13568-2, residues 1-514, K96S/S451D/S453D/S456D/S462D)
Technique: protein-binding microarray
Form: double-stranded DNA, one strand shown
Sample: in vitro
Tested at: 250 nM
Setting: 60-bp whole probe
With: salmon DNA 0.4 mg/ml
Baseline: random background probes
Direction: higher = stronger binding
Shared flanks, not repeated: GCCTAGCAC … GTCTTGATTCGCTTGACGCTGCTG
The log fluorescence of `TTAGGTTTCGGTTATCGGTTAGTGCTA` is reported as 11 z-score.
For `TTAGATTCCGGGACTGGATTAGTGCTA`, the log fluorescence was 0.0186 z-score.
The log fluorescence of `TCAATTTCCATTATTGCACTGTGCTAG` is reported as 1.46 z-score.
`GACGAACTGGGGTTTCGAAACGTGCTA` has a log fluorescence of 2.09 z-score.
For `TTAGAACTGGGGTTTAGATTAGTGCTA`, the log fluorescence was -0.188 z-score.
For `TAAGGACTGCTTTTCCTTTAGTGCTAG`, the log fluorescence was 0.267 z-score.
For `GACGATTTCAGTAACGAGACGTGCTAG`, the log fluorescence was 1.27 z-score.
`TACATTTTCCAAATGCCCCTGTGCTAG` has a log fluorescence of 0.345 z-score.
With `TCACCTTAGGTTTTCTGACTGTGCTAG` the log fluorescence was 0.25 z-score.
For `ATGACAATGATGTTTTGAGTTGTGCTA`, the log fluorescence was 0.177 z-score.
`TCAGATATAGGATAACGAACTGTGCTA` gave a log fluorescence of 0.421 z-score.
`GACGGTATCGGGATTCGGGACGTGCTA` gave a log fluorescence of 1.49 z-score.
The log fluorescence of `GACGACCTCAGTTTCGAGACGTGCTAG` is reported as 4.61 z-score.
`GACGGACTGGGACAGGGGACGTGCTAG` gave a log fluorescence of -0.377 z-score.
`TACGGTTTCGGTTTCGGGACGTGCTAG` has a log fluorescence of 10.4 z-score.
With `TCACCTTCCCCTCTAGGACTGTGCTAG` the log fluorescence was 0.138 z-score.
`TTAGGTATCCTTCGCCTTTAGTGCTAG` gave a log fluorescence of 0.369 z-score.
For `GACGGTTTCGGGTTTCCGGACGTGCTA`, the log fluorescence was 7.34 z-score.
`TTAGAATTCAGTTCCGATTAGTGCTAG` has a log fluorescence of 1.23 z-score.
For `TCACTTCCCAATTGTCTTACTGTGCTA`, the log fluorescence was 0.76 z-score.
The log fluorescence of `GACGGTCACGGTTTCGGGACGTGCTAG` is reported as 1.84 z-score.
The log fluorescence of `TCACTTATGATATATATAACTGTGCTA` is reported as 1.04 z-score.

Block 5
Target: Histone acetyltransferase KAT6A, winged helix 2, GST fusion (KAT6A, Homo sapiens, UniProt Q92794, residues 85-181)
Technique: protein binding microarray
Form: double-stranded DNA, one strand shown
Sample: in vitro
Tested at: not given
Setting: 8-mer, flanks averaged, mean of 2 arrays, mostly near background
Baseline: not given
Direction: higher = stronger binding
Target sequence (chain): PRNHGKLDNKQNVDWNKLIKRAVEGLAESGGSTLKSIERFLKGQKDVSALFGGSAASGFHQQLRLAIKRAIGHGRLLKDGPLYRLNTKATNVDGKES
`AAGTCAGA` has an E-score of -0.0784.
`CGCTAGTA` gave an E-score of 0.122.
`AAAAACCC` gave an E-score of 0.0498.
For `ATCAAGGC`, the E-score was 0.0325.
For `AGCCTCAA`, the E-score was 0.0194.
For `AAGTCTCG`, the E-score was -0.186.
The E-score of `CATTGTGC` is reported as -0.0834.
The E-score of `CACTGCTA` is reported as 0.0193.
For `TGTTTCAA`, the E-score was 0.127.
For `GGGGCGCA`, the E-score was -0.037.
`GAGCTTCA` gave an E-score of -0.0222.
For `CAACGTAG`, the E-score was 0.000235.
For `AGTCTCAC`, the E-score was 0.0103.
`CTTGCTGC` gave an E-score of 0.0897.
The E-score of `CTATGGCC` is reported as -0.0485.
`AGCCTAGA` has an E-score of -0.155.
`AACTCGGA` has an E-score of 0.0444.
